Published values gathered from unrelated publications.
± marks the error that the study gave.
rep main protease: Replicase polyprotein 1ab, main protease (rep, Severe acute respiratory syndrome coronavirus 2, UniProt P0DTD1)

Structure (SMILES) | target or system | test | system | conditions | endpoint | value
CC(=O)c1ccc(C)cc1OC(=O)c1nc(S(=O)(=O)Cc2ccccc2F)ncc1Cl | rep main protease | enzyme activity, inhibitor |  | 5 min | IC50 | 3.8 ± 0.5 µM
N[C@H](C[Se][Se]C[C@@H](N)C(=O)O)C(=O)O | rep main protease | enzyme activity, inhibitor |  |  | IC50 | 64.9 µM
O=C(c1ccc([N+](=O)[O-])c(-n2ccnc2)c1)N(c1cccc(Cl)c1)c1nc2ccccc2s1 | rep main protease | enzyme activity, inhibitor, FRET |  |  | IC50 | 74 µM
CCCCc1ccc(NC(=S)N/N=C/c2ccccc2O)cc1 | rep main protease | enzyme activity, inhibitor, FRET |  |  | IC50 | 4.37 µM
CNC(=O)C[C@H](Cc1ccc(F)cc1)NC(=O)[C@@H](Cc1ccc(Cl)cc1Cl)NC(=O)[C@@H](Cc1ccccc1C#N)NC(=O)OC(C)(C)C | rep main protease | enzyme activity, inhibitor, fluorescence |  |  | IC50 | 20 µM
CC1CC(c2ccc(C(=O)O)cn2)=NN1c1ccc(C#N)c(Cl)c1 (centres unmarked) | Replicase polyprotein 1ab, methyltransferase (rep, Severe acute respiratory syndrome coronavirus 2, UniProt P0DTD1) | enzyme activity, inhibitor |  |  | IC50 | > 100 µM
O=C1C[C@@H](c2ccc(O)c(O)c2)Oc2cc(O)cc(O)c21 | rep main protease | inhibitor |  |  | IC50 | 17.6 ± 0.9 µM
CNc1nc(NC(CCO)c2ccccc2Cl)nc(N2CCN(C(=O)CCl)C(C(=O)NCCC(N)=O)C2)n1 (centres unmarked) | rep main protease | enzyme activity, inhibitor |  |  | IC50 | 0.44 µM
CC(=O)Oc1ccc(/C=C/C(=O)O[C@@H]2Cc3c(O)cc(O)cc3O[C@@H]2c2ccc(O)c(O)c2)cc1 | rep main protease | enzyme activity, inhibitor, FRET |  |  | IC50 | 77.5 µM
Nc1ncnc2c1ncn2[C@@H]1O[C@H](CSCc2ccc(-c3ccccc3)c(C(=O)O)c2)[C@@H](O)[C@H]1O | Replicase polyprotein 1ab, nsp16 with nsp10 (rep, Severe acute respiratory syndrome coronavirus 2, UniProt P0DTD1) | methyltransferase activity, inhibitor |  | 30 min, 30 °C, added: SAM 10 µM | IC50 | 0.009 ± 0.0004 µM
CN1CCN(CCCNC(=O)C[C@H](Cc2ccc(F)cc2)NC(=O)[C@@H](Cc2ccc(Cl)cc2Cl)NC(=O)[C@H](N)Cc2ccccc2C#N)CC1 | rep main protease | enzyme activity, inhibitor, fluorescence |  |  | IC50 | 0.03 µM
CC(C)C[C@@H]1NC(=O)[C@H](C(C)C)NC(=O)[C@H](C)NC(=O)[C@H](Cc2ccc(O)cc2)NC(=O)[C@H](CCC(N)=O)NC(=O)[C@H](CC(C)C)NC(=O)[C@@H](Cc2ccc(O)cc2)NC(=O)CSC[C@@H](C(N)=O)NC(=O)[C@H](CCC(=O)O)NC(=O)[C@H](CCCNC(=N)N)NC(=O)[C@H](CCCNC(=N)N)NC(=O)[C@H](CCCCN)NC(=O)[C@H](Cc2c[nH]cn2)NC(=O)[C@H](CCCNC(=N)N)NC1=O | Replicase polyprotein 1ab, papain-like protease (rep, Severe acute respiratory syndrome coronavirus 2, UniProt P0DTD1) | enzyme activity, inhibitor |  |  | IC50 | > 10 µM
O=c1cc(-c2ccc(OC3O[C@H](CO)[C@@H](O)[C@H](O)[C@H]3O)c(O)c2)oc2cc(O)cc(O)c12 (some centres unmarked) | Replicase polyprotein 1ab, nsp13 helicase (rep, Severe acute respiratory syndrome coronavirus 2, UniProt P0DTD1) | ATPase activity |  | no nucleic acid | IC50 | > 30 µM
CCC1c2ccsc2CCN1C(=O)Cn1cc(CC2NC(=O)NC2=O)nn1 (centres unmarked) | rep main protease | enzyme activity, inhibitor |  |  | IC50 | > 100 µM
CCCCCCCCCCCCCCCC(=O)N[C@@H](CCC(=O)NCCOCCOCCC(=O)NCCOCCOCCC(=O)NCCCC[C@H](NC(=O)[C@H](CC(=O)O)NC(=O)[C@H](CC(C)C)NC(=O)[C@H](Cc1ccc(O)cc1)NC(=O)[C@H](CCCCN)NC(=O)[C@H](CO)NC(=O)[C@H](Cc1ccc(O)cc1)NC(=O)[C@H](CC(=O)O)NC(=O)[C@H](CO)NC(=O)[C@@H](NC(=O)[C@H](Cc1ccccc1)NC(=O)[C@@H](NC(=O)CNC(=O)[C@H](CCC(N)=O)NC(=O)[C@@H](CO)NC(=O)[C@@H](N)Cc1c[nH]cn1)[C@@H](C)O)[C@@H](C)O)C(=O)N[C@@H](CCCNC(=N)N)C(=O)N[C@@H](CCCNC(=N)N)C(=O)N[C@@H](C)C(=O)N[C@@H](CCC(N)=O)C(=O)N[C@@H](CC(=O)O)C(=O)N[C@@H](Cc1ccccc1)C(=O)N[C@H](C(=O)N[C@@H](CCC(N)=O)C(=O)N[C@@H](Cc1c[nH]c2ccccc12)C(=O)N[C@@H](CC(C)C)C(=O)N[C@@H](CC(C)C)C(=O)N[C@@H](CC(N)=O)C(=O)N[C@H](C(=O)NCC(=O)NCC(=O)N1CCC[C@H]1C(=O)N[C@@H](CO)C(=O)N[C@@H](CO)C(=O)NCC(=O)N[C@@H](C)C(=O)N1CCC[C@H]1C(=O)N1CCC[C@H]1C(=O)N1CCC[C@H]1C(=O)N[C@@H](CO)C(N)=O)[C@@H](C)O)C(C)C)C(=O)O |  |  | rhesus monkey, plasma | subcutaneous, 5 µg/kg, single dose | AUC(0-t) | 9.19 ng·h/mL
O=c1c2ccccc2sn1-c1ccccc1 | rep main protease | enzyme activity, inhibitor |  | 2.5 min preincubation | IC50 | 0.2 ± 0.02 µM
O=C(NCCc1cccc(F)c1)[C@@H](c1cncnc1)N(C(=O)[C@@H](F)Cl)c1ccc(S(F)(F)(F)(F)F)cc1 | rep main protease | enzyme activity, inhibitor |  |  | IC50 | 10.6 µM

Excerpt of the above:
Structure (SMILES) | target or system | test | system | conditions | endpoint | value
CC(=O)c1ccc(C)cc1OC(=O)c1nc(S(=O)(=O)Cc2ccccc2F)ncc1Cl | rep main protease | enzyme activity, inhibitor |  | 5 min | IC50 | 3.8 ± 0.5 µM
O=c1cc(-c2ccc(OC3O[C@H](CO)[C@@H](O)[C@H](O)[C@H]3O)c(O)c2)oc2cc(O)cc(O)c12 (some centres unmarked) | Replicase polyprotein 1ab, nsp13 helicase (rep, Severe acute respiratory syndrome coronavirus 2, UniProt P0DTD1) | ATPase activity |  | no nucleic acid | IC50 | > 30 µM
